Published values collected from several papers.
Each line is one published result; not all experiments were run side by side. Numbers after ± are the reported error. Values after ≈ are worked out from the molar mass of the structure shown.

| SMILES | organism | test | system | setting | quantity | value |
| --- | --- | --- | --- | --- | --- | --- |
| Cc1cccc(-c2ccc3nc(NC(=O)C4CCCCC4)nn3c2)c1 | Leishmania major | parasite growth | – | promastigote | IC50 | 2000 to 10000 nM |
| CC(C)C[C@H](NC(=O)[C@@H](NC(=O)[C@H](CCONC(=N)N)NC(=O)OCc1ccccc1)C1CCCCC1)[C@@H](O)CC(=O)NCCc1ccccc1 | Plasmodium falciparum | parasite growth | 3D7 | – | EC50 | 700 nM |
| C(=N\Nc1nnc(N/N=C/c2ccco2)c2ccccc12)/c1ccco1 | Plasmodium berghei | four-day suppressive test | ANKA, infected mice | oral, 20 mg/kg daily, day 4 post-infection | parasitaemia reduction | ~99.7% |
| O=C(N[C@@H](CC1CCCCC1)C(=O)N[C@@H](C[C@@H]1CCNC1=O)C(=O)C(=O)NC1CC1)OCc1cccc(Cl)c1 | feline coronavirus | viral replication | CRFK, FIPV-1146 | 36 h | EC50 | 550 ± 230 nM |
| CC(C)C[C@@H]1NC(=O)[C@H](CCCN)NC(=O)[C@H](C(C)C)NC(=O)[C@@H]2CCCN2C(=O)[C@@H](Cc2ccccc2)NC(=O)[C@H](CC(C)C)NC(=O)[C@H](CCCN)NC(=O)[C@H](C(C)C)NC(=O)[C@@H]2CCCN2C(=O)[C@@H](Cc2ccccc2)NC1=O | Staphylococcus aureus | broth dilution | USA300 LAC, MRSA | 18 to 24 h, 37 °C | MIC | 15.6 µg/mL (≈ 13.7 µM) |
| O=C[C@H](C[C@@H]1CCNC1=O)NC(=O)[C@H](CC1CCCCC1)NC(=O)OCc1cccc(Cl)c1 | feline coronavirus | viral replication | CRFK, FIPV-1146 | 36 h | EC50 | 90 ± 10 nM |
| CC[C@H](C)[C@H](NC(=O)[C@H](CCONC(=N)N)NC(=O)OCc1ccccc1)C(=O)N[C@@H](CC(C)C)[C@@H](O)CC(=O)NCCc1ccccc1 | Plasmodium falciparum | parasite growth | 3D7 | 72 h, blood stage | EC50 | 420 nM |
| NCCCN1CC(=O)N(Cc2ccccc2)CC(=O)N(CCCN)CC(=O)N(Cc2ccccc2)CC(=O)N(CCCN)CC(=O)N(Cc2ccccc2)CC1=O | Staphylococcus aureus | – | USA300, MRSA | concentration not given | antibacterial activity | inactive |
| CC(C)C[C@H](NC(=O)OCc1ccccc1)C(=O)N[C@@H](C[C@@H]1CCNC1=O)C(=O)C(=O)NC1CCCCC1 | feline coronavirus | viral replication | CRFK, FIPV-1146 | 36 h | EC50 | 70 ± 20 nM |
| CCC[C@H](NC(=O)[C@H](CCCNC(=N)N)NC(=O)OCc1ccccc1)C(=O)N[C@@H](CC(C)C)[C@@H](O)CC(=O)NCCc1ccccc1 | Plasmodium falciparum | parasite growth | 3D7 | 72 h, blood stage | EC50 | 3040 nM |
| O=C(N[C@@H](CC1CCCCC1)C(=O)N[C@@H](C[C@@H]1CCNC1=O)C(O)S(=O)(=O)O)OCc1ccccc1 (some centres unmarked) | feline coronavirus | viral replication | CRFK, FIPV-1146 | 36 h | EC50 | 20 ± 60 nM |
| CC(C)C[C@H](NC(=O)[C@@H](NC(=O)[C@H](CCONC(=N)N)NC(=O)OCc1ccccc1)C(C)C)[C@@H](O)CC(=O)NCCc1ccccc1 | Plasmodium falciparum | parasite growth | 3D7 | – | EC50 | 1070 nM |
| O=[N+]([O-])c1cccc(/C=N/Nc2nnc(N/N=C/c3cccc([N+](=O)[O-])c3)c3ccccc23)c1 | Plasmodium berghei | four-day suppressive test | ANKA, infected mice | oral, 20 mg/kg daily, day 4 post-infection | parasitaemia reduction | ~99.8% |
| Cc1ccc(NC(=O)Nc2ccnc(-c3cccnc3)n2)cc1 | Leishmania major | parasite growth | – | promastigote | EC50 | > 50000 nM |
